Published values collected from several papers.
Parts stem from different laboratories: compare values within a part only.

Set 1
Target: Interferon regulatory factor 5, full length, phosphomimetic (IRF5, Homo sapiens, UniProt Q13568-2, residues 1-514, K96S/S451D/S453D/S456D/S462D)
Technique: protein-binding microarray
Form: double-stranded DNA, one strand shown
Medium: in vitro
Tested at: 250 nM
Notes: 60-bp whole probe
Together with: salmon DNA 0.4 mg/ml
Baseline: random background probes
Reading: higher = stronger binding
All sequences stand within: GCCTAGCAC … GTCTTGATTCGCTTGACGCTGCTG
For `CAGTTTTCCTATGTCATTTAGTGCTAG`, the log fluorescence was 1.43 z-score.
`TTAGGTTTCGATTTCGGTTAGTGCTAG` gave a log fluorescence of 10.6 z-score.
`TTAGGACTGGGGACTGAGTTAGTGCTA` has a log fluorescence of -0.396 z-score.
The log fluorescence of `TTAGAACTGGGGTTTGGATTAGTGCTA` is reported as -0.0448 z-score.
With `TTAGGACTGGGGTATTGGTTAGTGCTA` the log fluorescence was 0.0287 z-score.
For `GACGGTTTCGGTTTCGGGCCGTGCTAG`, the log fluorescence was 10.4 z-score.
`TCATCTCTCCATGTGTTACTGTGCTAG` gave a log fluorescence of 0.475 z-score.
The log fluorescence of `TTAGGTATCGACACTGGGATAGTGCTA` is reported as 2.42 z-score.
For `GAGTGTTTCTTCTGCTGACAGTGCTAG`, the log fluorescence was 0.962 z-score.
With `TTAGAGATCAGTATCGATTAGTGCTAG` the log fluorescence was 7.23 z-score.
`TCAAGTCTGCAACATGGGACTGTGCTA` has a log fluorescence of -0.296 z-score.
For `TCAGTCCTCACTTCCTTCTGGTGCTAG`, the log fluorescence was 0.139 z-score.
`GACGGTATCGGTCTGGGGACGTGCTAG` gave a log fluorescence of 5.64 z-score.
`GCAGGGCAGGCAGGCTGAGGGTGCTAG` gave a log fluorescence of -1.38 z-score.
With `TTAGATTTCGGTACTGGATTAGTGCTA` the log fluorescence was 7.81 z-score.
The log fluorescence of `GACGGACTGGACTATGGGGACGTGCTA` is reported as -0.534 z-score.
The log fluorescence of `GACGGTTTCCTTCGCCTGACGTGCTAG` is reported as 0.589 z-score.
With `GACTGTTTCCTTATCCTGACGTGCTAG` the log fluorescence was 0.857 z-score.
`GACGGTATCGCCTATCGGGACGTGCTA` has a log fluorescence of 1.59 z-score.
`TCATGACTCTGCCTCTAACTGTGCTAG` gave a log fluorescence of -0.315 z-score.
For `GACGATTCCAGTTTCGAGACGTGCTAG`, the log fluorescence was 5.56 z-score.
`GACGGACTGGGTCTCGGGAAGTGCTAG` gave a log fluorescence of -1.08 z-score.
For `TGAGGTTCCGGTTTCGGTTAGTGCTAG`, the log fluorescence was 9.25 z-score.

Set 2
Target: Histone acetyltransferase KAT6A, both winged helices, GST fusion (KAT6A, Homo sapiens, UniProt Q92794, residues 1-181)
Technique: protein binding microarray
Form: double-stranded DNA, one strand shown
Medium: in vitro
Tested at: not given
Notes: 8-mer, flanks averaged, mean of 2 arrays, mostly near background
Baseline: not given
Reading: higher = stronger binding
Target sequence (chain): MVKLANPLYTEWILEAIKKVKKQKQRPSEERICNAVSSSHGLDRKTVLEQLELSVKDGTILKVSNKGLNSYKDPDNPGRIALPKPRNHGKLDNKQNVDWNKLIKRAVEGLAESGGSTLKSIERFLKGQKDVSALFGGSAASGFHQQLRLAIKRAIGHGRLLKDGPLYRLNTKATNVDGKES
With `CGAGATGA` the E-score was 0.0599.
With `CTCCTAAC` the E-score was -0.195.
For `CGTTTGAA`, the E-score was 0.0729.
The E-score of `AGAAGTTA` is reported as -0.232.
`CGGGACCG` has an E-score of 0.322.
`ATTTAAAC` has an E-score of -0.112.
`AAACGAGA` has an E-score of 0.01.
`GAGATGTA` has an E-score of -0.072.
With `ACGCTCGC` the E-score was 0.22.
`ATCCTGTA` has an E-score of -0.212.
For `ATGTGGGG`, the E-score was -0.194.
The E-score of `GCACCACC` is reported as -0.0153.
For `ATGGTGTA`, the E-score was -0.115.
`ACAGTGAT` gave an E-score of -0.157.
`AGGCATTA` has an E-score of -0.262.
For `TCGCAGAA`, the E-score was 0.0362.
`GTTCCTGA` has an E-score of -0.143.
`CAGCCTGC` has an E-score of -0.171.
`CAGCCAGA` gave an E-score of -0.248.
For `ACAAGCCA`, the E-score was -0.17.

Set 3
Target: Protein C-ets-1 (ETS1, Homo sapiens, UniProt P14921, residues 1-441, K379A, full length assumed)
Technique: protein-binding microarray
Form: double-stranded DNA, one strand shown
Medium: in vitro
Tested at: not given
Notes: k-mer, scored over probes, only values ≥0.25
Reading: higher = stronger binding
Construct (chain): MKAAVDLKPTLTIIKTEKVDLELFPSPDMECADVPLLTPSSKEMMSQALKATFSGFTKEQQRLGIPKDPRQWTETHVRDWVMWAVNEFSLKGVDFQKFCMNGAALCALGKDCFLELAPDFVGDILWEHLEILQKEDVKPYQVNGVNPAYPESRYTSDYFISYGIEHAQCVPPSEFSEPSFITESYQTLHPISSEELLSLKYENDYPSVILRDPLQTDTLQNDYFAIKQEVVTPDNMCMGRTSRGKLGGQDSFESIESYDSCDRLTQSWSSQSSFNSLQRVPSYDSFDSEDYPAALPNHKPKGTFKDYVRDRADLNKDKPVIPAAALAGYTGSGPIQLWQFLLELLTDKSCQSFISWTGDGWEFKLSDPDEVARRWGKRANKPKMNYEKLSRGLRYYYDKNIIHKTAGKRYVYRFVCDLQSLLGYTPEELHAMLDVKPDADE
`CTATATAC` gave an E-score of 0.303.
`ATTCGTCG` gave an E-score of 0.272.
The E-score of `ATTACAGG` is reported as 0.257.
The E-score of `AATGTAAC` is reported as 0.259.
The E-score of `CCCGACGG` is reported as 0.334.
The E-score of `TCCGGGAA` is reported as 0.353.
For `GGCGGTAA`, the E-score was 0.3.
`ACCGACAT` has an E-score of 0.419.
With `ACTTTCCG` the E-score was 0.273.
For `ACCGGGTG`, the E-score was 0.386.
`CCGGCAAG` gave an E-score of 0.275.
The E-score of `TCCCCGGA` is reported as 0.286.
`ACCGTTCC` gave an E-score of 0.273.
`GATATTAC` gave an E-score of 0.268.
For `ATGCACCG`, the E-score was 0.338.
The E-score of `AATCGGTA` is reported as 0.265.
`CCGGTATA` has an E-score of 0.426.
For `AACGTCAT`, the E-score was 0.252.
`CACACACC` has an E-score of 0.274.
The E-score of `ACGTACTA` is reported as 0.278.
The E-score of `ACACCGGG` is reported as 0.442.
The E-score of `TATATACA` is reported as 0.29.
`CCCGGAAA` gave an E-score of 0.419.
`ATGTGTTA` has an E-score of 0.255.
`ACCGGTAT` gave an E-score of 0.464.

Set 4
Target: RNA binding protein fox-1 homolog 2, RRM domain, GST-SBP tag (RBFOX2, Homo sapiens, UniProt O43251-10, residues 100-194)
Technique: RNA Bind-n-Seq
Form: RNA
Medium: in vitro
Tested at: 365 nM
Notes: natural RNA segment, single round, ends assumed
Baseline: no-protein control
Reading: higher = stronger binding
Construct (chain): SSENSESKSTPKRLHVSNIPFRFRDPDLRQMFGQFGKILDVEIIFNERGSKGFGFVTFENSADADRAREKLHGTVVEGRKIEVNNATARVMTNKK
`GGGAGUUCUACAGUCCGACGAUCCCCGGAAGGCCGAGUUCUGGUAUUGCUGAGGUUGCCCUGACAUAGCUUUCCAUGUAUCCUGUUAUUUCUGAAUCCACCUUACCUCAUGUCCUCAGAGUACCUAUAAACACUGGAAUUCUCGGGUGCCAA` — result for “RBNS enrichment (R)”: 0.623.
`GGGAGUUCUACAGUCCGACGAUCAGAAGGGGAGGUAGGGUCGACUGUGAGUGCAUGCCAUCUUUGUCAGACUGGUGACAGAGUUCCUGUCUAACUGUCCUUUAUUUGAAAUAAACUGAGCUGAGUUGGUCUCUUGGAAUUCUCGGGUGCCAA`: “RBNS enrichment (R)” 7.68.
For `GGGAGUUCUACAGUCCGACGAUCAGGACAUUUGCACUUUGCCACUCAAUGUCGUACCUCGGUUCACUGUUUGUUUUUGAAUGCCCUGUUUUCAUAGAAUCCUAUCCUCUCAGAUGGUGGAAUCUUUGGGGAAAUGGAAUUCUCGGGUGCCAA`, “RBNS enrichment (R)” read 3.19.
`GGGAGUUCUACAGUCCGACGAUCGACAGACCGGGCUGGAGGGUGACCUUGGCUGUGUGCGUCCCAGCAAAAGAGCUCUGGCCCGCAUCUCGCUGUGCCCUGAAGGGGGAUGAAGGGCGAUGCCUCGCCCGAGGUGGAAUUCUCGGGUGCCAA` — result for “RBNS enrichment (R)”: 0.385.
Under “RBNS enrichment (R)”, `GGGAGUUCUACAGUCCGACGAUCUUUCAUAAUGGAAUGAUUUAAAUUGAAGUGACAAAGAGUAUUAUUAAAAUACAAUGUUUAUACGUCUUUUGUGUAUUGUAGAUGUAUCAAGUGAUUUCUAAUUUUUUUCAUGGAAUUCUCGGGUGCCAA` is recorded as 3.85.
For `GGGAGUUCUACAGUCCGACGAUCCAAGAACCAGCUAAACAAUUAGAUACAGUUUAAUAUUUGUACCUCCAAAUCUAUCACUUCCUUCCUUCUUUCCUUCCUUCCUUUCUUCCCUUGCUGGCCUCAAGCUUGCAUGGAAUUCUCGGGUGCCAA`, “RBNS enrichment (R)” read 5.71.
`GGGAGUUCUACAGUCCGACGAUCAUCAGUCUCUGGGAUGGAGGCCAGAGAGCUGGUCAGGCUCCCCCAUCUGCCCAGCACGGCCUGCACUGUGCCCACCCACUUGCUCCACAACGUCCAGUUGGUCCUGCUGCUGGAAUUCUCGGGUGCCAA` — result for “RBNS enrichment (R)”: 0.655.
For `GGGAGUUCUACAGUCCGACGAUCAAACUGAAUUUGAAAUGACAAAAUGUCAAGUAUUAAAGCUGGUAUUUAAGAUGCUUGUAAAUAUUAUUUAUGUUUUUAAUUUUGUAAAAUAAAGAUUGCUUUUUAACCAUUGGAAUUCUCGGGUGCCAA`, “RBNS enrichment (R)” read 0.663.
`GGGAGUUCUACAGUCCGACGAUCUCUGAGUCGAUAGAAGCAGUGGUCAUCGUGUGUACUCCGACAUCUGAUGCUGUUCUCGAAAGAGAGACUCUCUGACAAUUUUUUUUUAACUUGAAUUUUUAGGUCAGCCCUGGAAUUCUCGGGUGCCAA` — result for “RBNS enrichment (R)”: 0.538.
`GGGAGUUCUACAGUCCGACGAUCGUAAAGCGCCCAGCAGGAACCACAGGCACUCUGUGCUGUUUGUACUUGAGGUAUGUACCAUUUGUAUACCUGAAUUUAUUUUAAAGAUAAACUGAAAUGCACAUAGCCAAUGGAAUUCUCGGGUGCCAA` — result for “RBNS enrichment (R)”: 0.455.
`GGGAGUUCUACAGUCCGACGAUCUUGAGUUUGUCACUCCAGUAACUAUUAACACAGAUUUUGUCAUGGCCUAUCAUUUCUUUUACCUUUAACUCAACUCUGAACUGAUUGAAUAAGUGCUAAGCUUAUUCUUUUGGAAUUCUCGGGUGCCAA` — result for “RBNS enrichment (R)”: 0.505.
For `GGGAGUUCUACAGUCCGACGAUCCAGAACUCAUAAGAGUGACAUAGUCAGCUGCUGACGGCACCUCAGCCACGCCACUCUUACUCAGUUCAGUGGGUGUGCUUGCGUGGUAGGAUGUGGUGCAGCCCUCUCUAUGGAAUUCUCGGGUGCCAA`, “RBNS enrichment (R)” read 0.285.

Some of these lines once more (set 1):
For `GACGGTTTCGGTTTCGGGCCGTGCTAG`, the log fluorescence was 10.4 z-score.
`TCATCTCTCCATGTGTTACTGTGCTAG` gave a log fluorescence of 0.475 z-score.
The log fluorescence of `TTAGGTATCGACACTGGGATAGTGCTA` is reported as 2.42 z-score.
For `GAGTGTTTCTTCTGCTGACAGTGCTAG`, the log fluorescence was 0.962 z-score.
With `TTAGAGATCAGTATCGATTAGTGCTAG` the log fluorescence was 7.23 z-score.
`TCAAGTCTGCAACATGGGACTGTGCTA` has a log fluorescence of -0.296 z-score.
For `TCAGTCCTCACTTCCTTCTGGTGCTAG`, the log fluorescence was 0.139 z-score.
`GACGGTATCGGTCTGGGGACGTGCTAG` gave a log fluorescence of 5.64 z-score.
`GCAGGGCAGGCAGGCTGAGGGTGCTAG` gave a log fluorescence of -1.38 z-score.
With `TTAGATTTCGGTACTGGATTAGTGCTA` the log fluorescence was 7.81 z-score.
The log fluorescence of `GACGGACTGGACTATGGGGACGTGCTA` is reported as -0.534 z-score.
The log fluorescence of `GACGGTTTCCTTCGCCTGACGTGCTAG` is reported as 0.589 z-score.
With `GACTGTTTCCTTATCCTGACGTGCTAG` the log fluorescence was 0.857 z-score.
